Results of several laboratories.
Compare with care: the assays were run in different laboratories. ± marks the error that the study gave.
GLP1R: Glucagon-like peptide 1 receptor (GLP1R, Homo sapiens, UniProt P43220)
Lysophospholipase-like protein 1: Lysophospholipase-like protein 1 (Mus musculus, UniProt Q3UFF7)
Taar1: Trace amine-associated receptor 1 (Taar1, Mus musculus, UniProt Q923Y8)
ALDH1A3: Retinaldehyde dehydrogenase 3 (ALDH1A3, Homo sapiens, UniProt P47895)
FPR2: N-formyl peptide receptor 2 (FPR2, Homo sapiens, UniProt P25090)
LDHA: L-lactate dehydrogenase A chain (LDHA, Homo sapiens, UniProt P00338)
GRM4: Metabotropic glutamate receptor 4 (GRM4, Homo sapiens, UniProt Q14833)
FPR1: fMet-Leu-Phe receptor (FPR1, Homo sapiens, UniProt P21462)
KCNT1: Potassium channel subfamily T member 1 (KCNT1, Homo sapiens, UniProt Q5JUK3)
Melanocortin receptor 4: Melanocortin receptor 4 (Mus musculus, UniProt P56450)

Amino acid sequences for entries named in this document (tags omitted). Residues count along the entry.
UniProt P43220, whole entry, looked up: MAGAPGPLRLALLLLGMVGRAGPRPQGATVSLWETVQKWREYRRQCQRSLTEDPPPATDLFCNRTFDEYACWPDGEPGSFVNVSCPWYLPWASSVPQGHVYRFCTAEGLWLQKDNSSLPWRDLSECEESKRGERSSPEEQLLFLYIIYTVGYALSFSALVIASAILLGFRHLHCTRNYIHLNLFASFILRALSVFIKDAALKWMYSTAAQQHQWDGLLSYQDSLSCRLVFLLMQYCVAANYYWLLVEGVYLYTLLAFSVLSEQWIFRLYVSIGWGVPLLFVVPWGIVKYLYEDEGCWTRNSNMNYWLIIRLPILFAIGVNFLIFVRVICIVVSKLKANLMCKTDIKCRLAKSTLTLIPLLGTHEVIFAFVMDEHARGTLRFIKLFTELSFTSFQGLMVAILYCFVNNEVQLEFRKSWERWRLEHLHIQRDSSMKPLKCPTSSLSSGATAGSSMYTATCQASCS
UniProt P43220, 24-463 limits assumed: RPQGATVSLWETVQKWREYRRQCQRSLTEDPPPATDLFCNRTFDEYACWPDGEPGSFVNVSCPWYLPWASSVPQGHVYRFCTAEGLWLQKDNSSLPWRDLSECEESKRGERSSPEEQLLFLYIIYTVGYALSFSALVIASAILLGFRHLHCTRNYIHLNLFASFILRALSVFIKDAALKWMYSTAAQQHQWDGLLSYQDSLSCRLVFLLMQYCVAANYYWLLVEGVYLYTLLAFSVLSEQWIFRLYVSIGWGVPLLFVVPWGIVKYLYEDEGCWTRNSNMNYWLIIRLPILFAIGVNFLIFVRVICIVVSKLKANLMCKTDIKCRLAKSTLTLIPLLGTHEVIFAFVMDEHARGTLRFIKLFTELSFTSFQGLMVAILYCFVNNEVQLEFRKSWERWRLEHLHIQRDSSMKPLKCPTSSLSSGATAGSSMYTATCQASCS
UniProt Q3UFF7, whole entry: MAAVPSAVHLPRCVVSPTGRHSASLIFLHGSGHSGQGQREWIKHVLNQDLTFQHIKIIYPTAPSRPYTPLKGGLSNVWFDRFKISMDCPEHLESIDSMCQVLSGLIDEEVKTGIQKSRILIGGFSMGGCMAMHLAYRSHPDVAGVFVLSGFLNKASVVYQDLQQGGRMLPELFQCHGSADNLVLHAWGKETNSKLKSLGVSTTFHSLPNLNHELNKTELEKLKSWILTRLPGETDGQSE
UniProt Q923Y8, whole entry: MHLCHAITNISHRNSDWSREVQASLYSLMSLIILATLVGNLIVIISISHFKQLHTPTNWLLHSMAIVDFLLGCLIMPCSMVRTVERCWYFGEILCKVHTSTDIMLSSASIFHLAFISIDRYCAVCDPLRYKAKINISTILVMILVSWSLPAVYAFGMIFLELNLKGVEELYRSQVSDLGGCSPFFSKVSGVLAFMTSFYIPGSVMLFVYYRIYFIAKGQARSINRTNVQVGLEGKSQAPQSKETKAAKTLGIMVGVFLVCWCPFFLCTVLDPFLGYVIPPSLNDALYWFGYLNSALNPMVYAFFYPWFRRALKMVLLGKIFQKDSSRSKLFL
UniProt Q14833, 33-912 limits assumed: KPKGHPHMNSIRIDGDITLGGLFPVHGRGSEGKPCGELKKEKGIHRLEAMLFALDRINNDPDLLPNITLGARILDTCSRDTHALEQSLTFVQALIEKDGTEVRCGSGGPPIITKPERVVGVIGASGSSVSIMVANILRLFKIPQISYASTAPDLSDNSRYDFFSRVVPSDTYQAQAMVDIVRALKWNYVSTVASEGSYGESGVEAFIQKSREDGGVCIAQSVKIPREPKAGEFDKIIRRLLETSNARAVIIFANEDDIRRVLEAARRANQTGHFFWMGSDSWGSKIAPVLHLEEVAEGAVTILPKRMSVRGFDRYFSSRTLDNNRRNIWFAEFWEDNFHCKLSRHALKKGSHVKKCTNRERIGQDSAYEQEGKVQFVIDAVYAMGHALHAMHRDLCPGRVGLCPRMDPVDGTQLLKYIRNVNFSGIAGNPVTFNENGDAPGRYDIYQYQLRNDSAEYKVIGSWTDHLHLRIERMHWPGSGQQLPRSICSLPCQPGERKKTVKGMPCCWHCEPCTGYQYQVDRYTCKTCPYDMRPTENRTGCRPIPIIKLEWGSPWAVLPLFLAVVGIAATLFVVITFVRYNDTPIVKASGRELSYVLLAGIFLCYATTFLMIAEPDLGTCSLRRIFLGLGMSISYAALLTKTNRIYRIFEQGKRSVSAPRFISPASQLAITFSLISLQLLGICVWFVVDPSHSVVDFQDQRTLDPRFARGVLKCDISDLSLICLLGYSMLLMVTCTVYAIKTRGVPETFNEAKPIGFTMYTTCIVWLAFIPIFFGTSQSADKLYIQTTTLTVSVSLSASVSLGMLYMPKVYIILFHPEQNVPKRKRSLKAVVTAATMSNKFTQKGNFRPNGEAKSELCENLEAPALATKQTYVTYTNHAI
UniProt P56450, whole entry: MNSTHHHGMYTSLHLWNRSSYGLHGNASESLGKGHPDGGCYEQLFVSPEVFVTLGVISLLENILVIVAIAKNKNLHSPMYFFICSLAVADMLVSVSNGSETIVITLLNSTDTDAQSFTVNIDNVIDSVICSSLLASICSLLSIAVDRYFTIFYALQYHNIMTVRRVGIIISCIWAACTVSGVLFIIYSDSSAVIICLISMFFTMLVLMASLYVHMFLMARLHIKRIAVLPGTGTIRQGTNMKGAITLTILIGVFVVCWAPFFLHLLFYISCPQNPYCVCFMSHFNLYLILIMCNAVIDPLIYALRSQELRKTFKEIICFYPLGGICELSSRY
UniProt O60603, whole entry, looked up: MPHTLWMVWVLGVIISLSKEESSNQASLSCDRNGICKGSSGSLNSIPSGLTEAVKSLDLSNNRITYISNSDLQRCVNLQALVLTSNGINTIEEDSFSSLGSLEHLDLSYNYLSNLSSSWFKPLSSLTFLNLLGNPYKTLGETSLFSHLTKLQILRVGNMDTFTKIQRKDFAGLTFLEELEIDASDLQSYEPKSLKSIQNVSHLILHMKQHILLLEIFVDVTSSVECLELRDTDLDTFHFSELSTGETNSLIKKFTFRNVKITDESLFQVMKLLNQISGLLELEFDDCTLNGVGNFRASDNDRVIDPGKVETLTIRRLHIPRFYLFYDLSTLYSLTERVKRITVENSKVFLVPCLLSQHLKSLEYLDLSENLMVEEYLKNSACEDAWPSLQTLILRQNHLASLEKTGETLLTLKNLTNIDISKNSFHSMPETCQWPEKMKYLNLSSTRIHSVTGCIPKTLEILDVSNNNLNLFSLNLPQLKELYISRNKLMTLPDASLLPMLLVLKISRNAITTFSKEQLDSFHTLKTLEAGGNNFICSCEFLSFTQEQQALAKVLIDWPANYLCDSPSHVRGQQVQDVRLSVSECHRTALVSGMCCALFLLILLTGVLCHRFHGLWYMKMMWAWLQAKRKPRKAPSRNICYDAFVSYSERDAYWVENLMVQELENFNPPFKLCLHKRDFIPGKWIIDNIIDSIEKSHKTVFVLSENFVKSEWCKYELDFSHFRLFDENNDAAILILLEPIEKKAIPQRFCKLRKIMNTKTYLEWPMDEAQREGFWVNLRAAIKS
UniProt P31421, 19-872 limits assumed: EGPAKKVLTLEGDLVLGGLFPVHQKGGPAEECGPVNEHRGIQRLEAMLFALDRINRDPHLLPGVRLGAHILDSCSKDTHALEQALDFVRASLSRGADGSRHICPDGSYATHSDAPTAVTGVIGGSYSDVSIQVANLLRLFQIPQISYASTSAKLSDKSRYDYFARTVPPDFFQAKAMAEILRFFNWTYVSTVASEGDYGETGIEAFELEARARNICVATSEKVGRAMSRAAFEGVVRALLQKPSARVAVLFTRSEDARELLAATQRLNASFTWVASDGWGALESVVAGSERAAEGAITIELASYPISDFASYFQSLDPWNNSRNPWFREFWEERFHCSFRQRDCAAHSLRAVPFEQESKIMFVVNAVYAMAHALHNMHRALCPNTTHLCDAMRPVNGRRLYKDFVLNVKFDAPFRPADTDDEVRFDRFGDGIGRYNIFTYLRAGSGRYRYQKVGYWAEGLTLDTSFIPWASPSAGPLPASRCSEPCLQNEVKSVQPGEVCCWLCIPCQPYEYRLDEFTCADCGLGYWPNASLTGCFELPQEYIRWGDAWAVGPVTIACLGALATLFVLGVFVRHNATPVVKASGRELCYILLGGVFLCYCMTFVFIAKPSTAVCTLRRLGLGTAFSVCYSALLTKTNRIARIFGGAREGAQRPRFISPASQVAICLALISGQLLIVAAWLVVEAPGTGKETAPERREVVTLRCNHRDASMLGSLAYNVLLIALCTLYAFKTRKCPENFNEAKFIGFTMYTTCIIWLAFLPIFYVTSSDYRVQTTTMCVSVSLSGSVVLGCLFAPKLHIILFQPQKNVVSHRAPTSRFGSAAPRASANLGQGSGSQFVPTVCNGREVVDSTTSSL
UniProt P08912, whole entry: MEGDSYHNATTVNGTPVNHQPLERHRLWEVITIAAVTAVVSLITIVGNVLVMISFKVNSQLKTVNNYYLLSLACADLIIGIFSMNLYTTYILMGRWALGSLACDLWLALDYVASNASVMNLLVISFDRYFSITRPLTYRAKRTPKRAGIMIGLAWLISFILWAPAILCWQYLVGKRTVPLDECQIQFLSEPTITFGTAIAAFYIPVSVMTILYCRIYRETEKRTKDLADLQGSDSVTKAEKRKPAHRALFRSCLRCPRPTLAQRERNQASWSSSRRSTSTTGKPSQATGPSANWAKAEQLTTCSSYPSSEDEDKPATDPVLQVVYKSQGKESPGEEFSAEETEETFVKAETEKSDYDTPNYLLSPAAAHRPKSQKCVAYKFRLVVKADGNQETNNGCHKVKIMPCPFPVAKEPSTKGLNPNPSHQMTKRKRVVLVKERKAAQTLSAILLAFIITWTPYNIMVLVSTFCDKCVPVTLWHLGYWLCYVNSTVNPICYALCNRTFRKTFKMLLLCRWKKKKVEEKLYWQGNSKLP
UniProt P45983, whole entry: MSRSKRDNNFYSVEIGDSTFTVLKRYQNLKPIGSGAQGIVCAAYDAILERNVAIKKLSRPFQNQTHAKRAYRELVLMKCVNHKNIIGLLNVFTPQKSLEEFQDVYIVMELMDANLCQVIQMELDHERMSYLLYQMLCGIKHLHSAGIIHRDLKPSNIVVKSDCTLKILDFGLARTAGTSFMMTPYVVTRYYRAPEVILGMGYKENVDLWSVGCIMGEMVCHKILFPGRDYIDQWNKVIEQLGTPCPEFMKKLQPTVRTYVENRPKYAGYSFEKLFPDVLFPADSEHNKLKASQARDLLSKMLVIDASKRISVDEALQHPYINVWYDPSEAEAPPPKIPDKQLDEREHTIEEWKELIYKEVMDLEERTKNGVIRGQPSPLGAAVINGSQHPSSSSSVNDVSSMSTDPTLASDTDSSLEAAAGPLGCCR
UniProt Q02750, whole entry: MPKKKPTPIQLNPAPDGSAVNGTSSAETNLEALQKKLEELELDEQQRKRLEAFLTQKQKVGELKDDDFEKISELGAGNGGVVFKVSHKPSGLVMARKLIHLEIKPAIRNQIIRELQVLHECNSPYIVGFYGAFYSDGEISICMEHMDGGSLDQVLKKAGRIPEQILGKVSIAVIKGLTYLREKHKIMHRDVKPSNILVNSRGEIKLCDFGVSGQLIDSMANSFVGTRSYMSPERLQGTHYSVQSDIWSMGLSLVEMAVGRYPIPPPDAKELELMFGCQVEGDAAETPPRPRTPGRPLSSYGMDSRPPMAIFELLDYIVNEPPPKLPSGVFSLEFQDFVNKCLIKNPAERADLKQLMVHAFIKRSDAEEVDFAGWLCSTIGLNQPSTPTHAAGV
UniProt P41149, whole entry: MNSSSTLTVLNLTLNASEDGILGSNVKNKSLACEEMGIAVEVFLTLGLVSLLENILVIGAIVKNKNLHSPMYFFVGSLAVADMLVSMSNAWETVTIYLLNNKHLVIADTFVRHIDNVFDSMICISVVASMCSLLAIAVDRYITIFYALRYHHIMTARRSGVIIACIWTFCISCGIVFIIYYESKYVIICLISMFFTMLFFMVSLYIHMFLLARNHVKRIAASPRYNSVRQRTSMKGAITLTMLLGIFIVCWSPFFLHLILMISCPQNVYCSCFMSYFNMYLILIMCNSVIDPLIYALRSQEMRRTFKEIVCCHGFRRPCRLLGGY
UniProt P11474, whole entry: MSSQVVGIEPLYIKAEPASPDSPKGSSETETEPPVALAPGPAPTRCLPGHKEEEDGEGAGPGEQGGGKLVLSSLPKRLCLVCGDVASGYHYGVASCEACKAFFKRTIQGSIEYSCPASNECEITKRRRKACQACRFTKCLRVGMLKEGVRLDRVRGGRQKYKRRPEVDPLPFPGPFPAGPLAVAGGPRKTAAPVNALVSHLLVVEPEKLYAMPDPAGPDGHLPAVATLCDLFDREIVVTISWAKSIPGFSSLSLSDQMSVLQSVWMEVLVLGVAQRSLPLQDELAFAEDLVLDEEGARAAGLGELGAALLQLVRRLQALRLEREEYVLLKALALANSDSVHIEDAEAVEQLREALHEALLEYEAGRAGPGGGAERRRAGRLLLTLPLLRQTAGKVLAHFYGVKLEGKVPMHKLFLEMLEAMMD

The EC50 of `CCC(C(=O)Nc1ccc(-c2ccccc2)cn1)n1nnc(-c2ccncc2)c1-c1ccccc1` (stereo not shown) is reported as 1.8 nM (Protein-serine O-palmitoleoyltransferase porcupine (Mus musculus, UniProt Q9JJJ7); Wnt signalling reporter, inhibitor; L-Wnt-STF).
With `CC(C)(Cn1cc(CN[C@@H]2CCc3ccccc32)nn1)c1c[nH]c2ccccc12` the EC50 was 1840 ± 338 nM (GLP1R; cAMP accumulation, positive allosteric modulator, HTRF; CHO-K1 expressing GLP1R; purified compound, together with: GLP-1(9-36) at EC20).
`Nc1nc(NCCc2ccc(Cl)cc2)nn1S(=O)(=O)c1cccc([N+](=O)[O-])c1` gave an EC50 of 6200 nM (Lysophospholipase-like protein 1; enzyme activity, activator, gel-based ABPP, FP-rhodamine; purified protein).
The EC50 of `NCC(c1ccccc1)c1cccc(Oc2ccccc2)c1` (stereo not shown) is reported as greater than 10000 nM (Taar1; cAMP production, agonist; HEK293).
`Oc1c(Cl)cccc1CNc1nc2ccccc2n1CC1CC1` has an EC50 of 250 ± 10 nM (ALDH1A3; enzyme activity, inhibitor, NADH absorbance 340 nm; pH 7.5, 25 °C, 200 µM NAD+, together with: 100 µM propionaldehyde).
`CSc1cc(NC(=O)c2ccccn2)ccc1Cl` has an EC50 of greater than 30000 nM (Metabotropic glutamate receptor 6 (Homo sapiens, UniProt O15303); agonist).
The EC50 of `NCC(c1ccc(O)cc1)c1ccc(O)cc1` is reported as no less than 10000 nM (Taar1; cAMP production, agonist).
`O=C(CCCCCONC(=O)c1cc2ccccc2[nH]1)NO` gave an EC50 of 1 to 100 nM (Histone deacetylase 1 (HDAC1, Homo sapiens, UniProt Q13547); enzyme activity).
`CNc1ccc(N)cc1-n1cnc(-c2ccc(C(F)(F)F)cc2)c1` gave an EC50 of greater than 100000 nM (Toll-like receptor 1/2 (Homo sapiens, UniProt O60603+Q15399); reporter gene, agonist, SEAP reporter; HEK-Blue hTLR2; 24 h).
For `COc1ccc(NC(=O)N[C@H](Cc2ccc(C#N)cc2)C(=O)NCC2(c3cccc(O)c3)CC2)cc1`, the EC50 was 2600 ± 140 nM (FPR2; calcium mobilization, agonist; FPR2-transfected HL-60).
With `CCC(C)(N)c1cn(CC(C)(C)c2c[nH]c3ccccc23)nn1` (stereo not shown) the EC50 was 1160 nM (GLP1R; cAMP accumulation, positive allosteric modulator, HTRF; CHO-K1 expressing GLP1R; crude reaction product, together with: GLP-1(9-36) at EC20).
With `Cn1c(=O)oc2ccc(S(=O)(=O)n3nc(SCc4ccc(Cl)cc4)nc3N)cc21` the EC50 was 380 nM (Lysophospholipase-like protein 1; enzyme activity, activator, gel-based ABPP, FP-rhodamine; purified protein).
With `O=C(O)c1csc(-n2nc(-c3ccccc3)cc2C(F)(F)F)n1` the EC50 was greater than 50000 nM (LDHA; thermal stabilisation, CETSA; HEK293; 3.5 min, 71 °C).
The EC50 of `Nc1nc(SCc2ccc(Cl)cc2)nn1S(=O)(=O)c1nc2ccccc2s1` is reported as greater than 20000 nM (Lysophospholipase-like protein 1; enzyme activity, activator, gel-based ABPP, FP-rhodamine; purified protein).
The EC50 of `COc1ccc(NC(=O)CN2CCCN(S(=O)(=O)c3ccc(Cl)c(F)c3)CC2)c(OC)c1` is reported as 4500 ± 700 nM (GRM4; calcium mobilization, positive allosteric modulator; CHO cells with Gqi5; together with: glutamate EC20).
With `Cc1nc(-c2ccc(OCC(C)C)c(C#N)c2)sc1C(=O)N(C)C` the EC50 was 760 nM (Grm2/Grm4 (Rattus norvegicus, UniProt P31421+P31423); thallium flux, positive allosteric modulator; HEK293 GIRK; together with: glutamate EC20).
`COc1ccc(NC(=O)CN2CCCN(S(=O)(=O)c3ccccc3)CC2)c(OC)c1` gave an EC50 of 3500 ± 700 nM (GRM4; calcium mobilization, positive allosteric modulator; CHO cells with Gqi5; together with: glutamate EC20).
`NC(=O)c1cccc(S(=O)(=O)n2nc(CCCc3ccc(Cl)cc3)nc2N)c1` gave an EC50 of greater than 20000 nM (Lysophospholipase-like protein 1; enzyme activity, activator, gel-based ABPP, FP-rhodamine; purified protein).
`O=C(N[C@@H]1CCc2ccccc21)C1CCN(S(=O)(=O)c2ccc3[nH]ncc3c2)CC1` gave an EC50 of greater than 10000 nM (Muscarinic acetylcholine receptor M5 (CHRM5, Homo sapiens, UniProt P08912); positive allosteric modulator, calcium mobilization; CHO cells expressing human M5; together with: acetylcholine EC20).
The EC50 of `NS(=O)(=O)c1ccc(Cc2c(-c3ccc(F)c(C4CCCCC4)c3)nn(-c3nc(C(=O)O)cs3)c2CC2CC2)cc1F` is reported as 180 nM (LDHA; thermal stabilisation, CETSA; HEK293; 3.5 min, 71 °C).
For `Cc1cc(NC(=O)c2cccc(NC(=O)C3=CC(C)(C)CCC3=O)c2)ccc1Nc1nccc(-c2cccnc2)n1`, the EC50 was 76 ± 30 nM (Mitogen-activated protein kinase 8 (MAPK8, Homo sapiens, UniProt P45983); JNK1 binding, NanoBRET; HEK293 cells; 2 h, together with: tracer K-5).
`COc1ccc(NC(=O)CN2CCCN(S(=O)(=O)c3ccc(C)c(Cl)c3)CC2)c(OC)c1` has an EC50 of 3400 ± 200 nM (GRM4; calcium mobilization, positive allosteric modulator; CHO cells with Gqi5; together with: glutamate EC20).
`CCn1nc(C)cc1C(=O)Nc1nc2cc(C(N)=O)cc(OC)c2n1C/C=C/Cn1c(NC(=O)c2cc(C)nn2CC)nc2cc(C(N)=O)cc(OCCCN3CCN(CC(=O)NCCNC(=O)CCCCCN4C(=O)C=CC4=O)CC3)c21` gave an EC50 of 871 ± 119 nM (Stimulator of interferon genes protein (Sting1, Mus musculus, UniProt Q3TBT3); IFN-β secretion, agonist, ELISA; mouse BMDCs; carrier-free cysteine-blocked click).
For `COc1ccc(NC(=O)CN2CCCN(S(=O)(=O)c3ccccc3F)CC2)c(OC)c1`, the EC50 was 3500 ± 500 nM (GRM4; calcium mobilization, positive allosteric modulator; CHO cells with Gqi5; together with: glutamate EC20).
`CC(C)(Cn1cc(CCC(=O)Nc2ccccc2)nn1)c1c[nH]c2ccccc12` has an EC50 of 1110 nM (GLP1R; cAMP accumulation, positive allosteric modulator, HTRF; CHO-K1 expressing GLP1R; crude reaction product, together with: GLP-1(9-36) at EC20).
`COc1ccc(NC(=O)CN2CCCN(S(=O)(=O)c3ccoc3)CC2)c(OC)c1` gave an EC50 of greater than 10000 nM (GRM4; calcium mobilization, positive allosteric modulator; CHO cells with Gqi5; together with: glutamate EC20).
`Cc1c(=O)n(C)c(Nc2ccc(I)cc2F)c2c(=O)n(C3CC3)c(=O)n(-c3cccc(NC(=O)CCOCCOCCNC(=O)CCC4=[N+]5C(=Cc6ccc(-c7ccc[nH]7)n6[B-]5(F)F)C=C4)c3)c12` gave an EC50 of 193 ± 28 nM (Dual specificity mitogen-activated protein kinase kinase 1, with CRAF (MAP2K1, Homo sapiens, UniProt Q02750); binding, NanoBRET; HEK-293T; MEK1-NanoLuc with CRAF).
`COC(=O)c1ccc(NC(=O)CSc2nc3ccc(OC)cc3[nH]2)cc1` has an EC50 of 1500 nM (FPR1; calcium mobilization, agonist; HL-60 transfected with FPR1).
With `NCCCCNC(=O)[C@H](Cc1ccc(Cl)cc1)NC(=O)N1CCc2ccccc2C1` the EC50 was greater than 100000 nM (Melanocortin receptor 5 (Mus musculus, UniProt P41149); reporter gene, agonist, β-galactosidase reporter; HEK293 stably expressing Melanocortin receptor 5).
`Nc1nc(SCc2ccc(Cl)cc2)nn1S(=O)(=O)c1cccc2nonc12` gave an EC50 of 440 nM (Lysophospholipase-like protein 1; enzyme activity, activator, gel-based ABPP, FP-rhodamine; purified protein).
`Cc1[nH]c2cc(Cl)cc(Cl)c2c1CCn1cc(CCCN)nn1` has an EC50 of 560 nM (GLP1R; cAMP accumulation, positive allosteric modulator, HTRF; CHO-K1 expressing GLP1R; crude reaction product, together with: GLP-1(9-36) at EC20).
`Cc1cccc2c1ncn2CC1CCN(S(=O)(=O)c2cccc(C(F)(F)F)c2)CC1` gave an EC50 of 1900 nM (KCNT1; thallium flux, activator; HEK293 expressing KCNT1).
The EC50 of `NCC(c1ccc(O)cc1)c1ccc(Oc2ccccc2)cc1` (stereo not shown) is reported as greater than 10000 nM (Taar1; cAMP production, agonist; HEK293).
For `NCCCCNC(=O)[C@H](Cc1ccccc1)NC(=O)N1CCc2ccccc2C1`, the EC50 was 19000 ± 2000 nM (Melanocortin receptor 4; reporter gene, agonist, β-galactosidase reporter; HEK293 stably expressing Melanocortin receptor 4).
The EC50 of `COc1ccc2ncn(CC3CCN(S(=O)(=O)c4cccc(C(F)(F)F)c4)CC3)c2c1` is reported as 1600 nM (KCNT1; thallium flux, activator; HEK293 expressing KCNT1).
With `Cc1[nH]c2cc(Cl)cc(Cl)c2c1CCn1cc(CN2CCS(=O)(=O)CC2)nn1` the EC50 was 498 nM (GLP1R; cAMP accumulation, positive allosteric modulator, HTRF; CHO-K1 expressing GLP1R; crude reaction product, together with: GLP-1(9-36) at EC20).
`O=C(NN=Cc1ccccc1)c1ccc(Cl)cc1` has an EC50 of 1710 nM (Steroid hormone receptor ERR1 (ESRRA, Homo sapiens, UniProt P11474); reporter gene, agonist, ERRE luciferase reporter; HEK293 transfected).
For `COc1cccc(Cc2cc(C)nn(C(C)(C)C(=O)Nc3ccc(Br)cc3)c2=O)c1`, the EC50 was 20100 nM (FPR1; β-arrestin recruitment, agonist; CHO-K1 expressing FPR1).
With `CN(Cc1ccccc1)Cc1cn(CC(C)(C)c2c[nH]c3ccccc23)nn1` the EC50 was 1320 ± 33 nM (GLP1R; cAMP accumulation, positive allosteric modulator, HTRF; CHO-K1 expressing GLP1R; purified compound, together with: GLP-1(9-36) at EC20).
`NCCCCNC(=O)[C@H](Cc1ccc2ccccc2c1)NC(=O)N1CCc2ccccc2C1` gave an EC50 of greater than 100000 nM (Melanocortin receptor 4; reporter gene, agonist, β-galactosidase reporter; HEK293 stably expressing Melanocortin receptor 4).
The EC50 of `O=C(Nc1ccc(F)cc1)C12CC1/C(=N\O)c1ccccc1O2` (stereo not shown) is reported as 2000 nM (GRM4; calcium mobilization, positive allosteric modulator; CHO hmGluR4/Gqi5; together with: glutamate EC20).
`O=C(Nc1ccc([N+](=O)[O-])cc1)N[C@@H](Cc1c[nH]c2ccccc12)C(=O)NCC1(c2ccccn2)CCCCC1` gave an EC50 of 12100 ± 3400 nM (FPR2; β-arrestin recruitment, agonist; CHO-K1 expressing FPR2).
For `CCCn1c(NCc2cccc(Cl)c2O)nc2ccccc21`, the EC50 was 79 ± 30 nM (ALDH1A3; enzyme activity, inhibitor, NADH absorbance 340 nm; pH 7.5, 25 °C, 200 µM NAD+, together with: 100 µM propionaldehyde).
`COc1ccccc1-c1cc(C(F)(F)F)nc(S(C)(=O)=O)n1` has an EC50 of 15000 ± 11000 nM (GLP1R; cAMP accumulation, positive allosteric modulator; HEK293T overexpressing target; together with: GLP-1 at EC20).
The EC50 of `CC(C)(Cn1cc(-c2ccc(B(O)O)cc2)nn1)c1c[nH]c2ccccc12` is reported as 769 nM (GLP1R; cAMP accumulation, positive allosteric modulator, HTRF; CHO-K1 expressing GLP1R; crude reaction product, together with: GLP-1(9-36) at EC20).
With `COc1cccc(N2CCN(CCCCn3ncc(=O)n(C)c3=O)CC2)c1` the EC50 was 0.7 nM (5-hydroxytryptamine receptor 1A (HTR1A, Homo sapiens, UniProt P08908); agonist; CHO cell membranes).

For quick reference, copied from above:
With `Cc1[nH]c2cc(Cl)cc(Cl)c2c1CCn1cc(CN2CCS(=O)(=O)CC2)nn1` the EC50 was 498 nM (GLP1R; cAMP accumulation, positive allosteric modulator, HTRF; CHO-K1 expressing GLP1R; crude reaction product, together with: GLP-1(9-36) at EC20).
For `COc1ccc(NC(=O)N[C@H](Cc2ccc(C#N)cc2)C(=O)NCC2(c3cccc(O)c3)CC2)cc1`, the EC50 was 2600 ± 140 nM (FPR2; calcium mobilization, agonist; FPR2-transfected HL-60).
`Cc1c(=O)n(C)c(Nc2ccc(I)cc2F)c2c(=O)n(C3CC3)c(=O)n(-c3cccc(NC(=O)CCOCCOCCNC(=O)CCC4=[N+]5C(=Cc6ccc(-c7ccc[nH]7)n6[B-]5(F)F)C=C4)c3)c12` gave an EC50 of 193 ± 28 nM (Dual specificity mitogen-activated protein kinase kinase 1, with CRAF (MAP2K1, Homo sapiens, UniProt Q02750); binding, NanoBRET; HEK-293T; MEK1-NanoLuc with CRAF).
`CSc1cc(NC(=O)c2ccccn2)ccc1Cl` has an EC50 of greater than 30000 nM (Metabotropic glutamate receptor 6 (Homo sapiens, UniProt O15303); agonist).
